Measured values gathered from unrelated publications.
Parts stem from different laboratories: compare values within a part only.

Series 1
Target: RNA binding protein fox-1 homolog 2, RRM domain, GST-SBP tag (RBFOX2, Homo sapiens, UniProt O43251-10, residues 100-194)
Method: RNA Bind-n-Seq
Molecule type: RNA
Medium: in vitro
Tested at: 365 nM
Notes: natural RNA segment, single round, ends assumed
Reference: no-protein control
Reading: higher = stronger binding
All sequences stand within: GGGAGUUCUACAGUCCGACGAUC … UGGAAUUCUCGGGUGCCAA
Residues (chain): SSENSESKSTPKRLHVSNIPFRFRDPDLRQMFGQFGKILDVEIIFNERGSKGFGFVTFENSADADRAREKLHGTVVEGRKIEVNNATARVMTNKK
Under “RBNS enrichment (R)”, `GAAAAGGGAUGAAAUUGAAGAAACUGAAACUUCACGGAAUUUGGAAGAGUGGUUUUAACAUGGGACAGAAAAUAGUCUUUUCCUAUUCUCUCAAUCCAUUUUUAGGUAGA` is recorded as 0.625.
`AACUCACCAAGUGUCAGCCCAGGUAGUGAGAAACUUGCAGUAGACAUGGAGCUGGGCUCUUUUAAAUUUGUUUUGUGAAGUUUCAGCCUCUUAAUGCUUUUGUAUAGGAA` — result for “RBNS enrichment (R)”: 0.621.
For `AGCAUCAGCUCAGACCGUGGGGUUCCACUGGGUAUUGGGAAUUAGGCUCCCCCACUAGCUUUCAGGUGGGUAAGUUUUUUUGUUUGUUUUUUGGGGGUCUUUAGACUCUU`, “RBNS enrichment (R)” read 4.36.
Under “RBNS enrichment (R)”, `GGCUCGGAGCUUGAAGCUCUUUGAUCCUGAAGUUUGAAUUCCCCUCUGCCUCCCGGCCUGGGCUUGUUCUCAGGUCAGCCGCUGCUUUGUUCACUAUCAGUCUGGAGUGA` is recorded as 0.419.
`CUCAGAAGAGCUCAUGUCCUGGGACGGUGGUGCUGGAGCCUGGGCGAGCCUUCCACUCUCCCACGGUCUGGUGUCUCUAUGGAAAUAAAGUCUUAGUAUUGCAUUGGUGU`: “RBNS enrichment (R)” 1.31.
For `CCCAUGCCUGUAAUCCCAGCACUUUGGGGGGCCAAGGCAGGCUGGAUCACCUGAGGACAGGAGUUCGAGACCAGUCUGGCCAACAUGGGGAAACCCCGUCUCUACUAAAA`, “RBNS enrichment (R)” read 0.568.
Under “RBNS enrichment (R)”, `CACAGACUGCCUUAGCCCCCACACCUCUGUCCCUAGGAGAAUGAAUGGGCAGAGUGGAGCUGACACUCUCUCCUCAGGCAGCCUCCUCAGCCUUUAUUCGUCAACGGCCU` is recorded as 0.507.
Under “RBNS enrichment (R)”, `CACACUCUAAGUUCUAUUGAACCUAGGACUUGAGCCUCCAUUUCUGGCUUCUAGUCUGGUGUUCUGAGUACUUGAUUUCAGGUCAAUAACGGUCCCCCCUCACUCCACAC` is recorded as 0.246.
Under “RBNS enrichment (R)”, `CCUGCCAACACUAAUGUUCCCCACACUAUCUUUGUACAUUUCAGAGGUUUGGUCUUCUGGGUGGUGUCCGUUUCCCCUCACUGUCAGGGAAAGCUGGAUCCCUCUGGCUG` is recorded as 0.335.
`GAAAUAAGGGGAAGCUUUAGAGUUUAAUAGGAUAUUCAAAACUAUAAAAGAAUAUCAUCUUAAAAAACUGUUCUGGCAACUAUCUGCUACCAGAAGGUUAGAUUGAGAAA` — result for “RBNS enrichment (R)”: 0.486.
Under “RBNS enrichment (R)”, `UACCUCACCUGUCCACGUUCACCACAGGCCACUUGAGCACGUGGCACCUAUCUGAGCUCUACUCAGUCAUGAGAGGAGGACCAUGCUGCUGUCACUUCGUUGGUCCCUUG` is recorded as 0.301.
For `CAGGAUGUCCUGCUCCAUCUGGCCGGCUCACUCCGUGUGGCCUGCCUUUGCUGACCGUUUUGGGGUUCCCCGCCGGAGCUACAGGGGCAUUUUCUUCCCUAAAACCAACA`, “RBNS enrichment (R)” read 0.282.

Series 2
Target: Centromere-binding protein 1, full length, N-terminal tag (CBF1, Saccharomyces cerevisiae, UniProt P17106, residues 1-351)
Sequence of UniProt P17106 (whole entry, looked up): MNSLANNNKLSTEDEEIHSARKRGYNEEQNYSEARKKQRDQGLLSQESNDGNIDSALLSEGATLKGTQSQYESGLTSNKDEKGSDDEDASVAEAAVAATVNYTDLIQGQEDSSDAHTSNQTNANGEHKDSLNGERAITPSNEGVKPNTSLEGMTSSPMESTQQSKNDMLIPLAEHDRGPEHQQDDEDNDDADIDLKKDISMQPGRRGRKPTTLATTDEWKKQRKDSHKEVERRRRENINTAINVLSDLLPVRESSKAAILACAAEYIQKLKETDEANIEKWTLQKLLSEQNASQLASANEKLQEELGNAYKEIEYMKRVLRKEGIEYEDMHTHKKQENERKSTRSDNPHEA
Method: protein-binding microarray
Molecule type: double-stranded DNA, one strand shown
Medium: in vitro
Tested at: 0.8 µM
Notes: whole 60-bp probe, no competitor
Reading: higher = stronger binding
All sequences stand within: … GTCTTGATTCGCTTGACGCTGCTG
For `CTATGAGTCTTATATGACGTCACTAGAAGCTCATTC`, the fluorescence intensity was 506 a.u.
The fluorescence intensity of `CTATTTTCAAATCCATCCGTGACTTCTATGTCTTTC` is reported as 716 a.u.
`CTATCCTGTATTTCACACGAGAGCAAAACACATTTC` has a fluorescence intensity of 662 a.u.
`GAAATGTTAAAGTGTGTGGTGGTAAGACGTTATTAG` has a fluorescence intensity of 534 a.u.
`CTATTTTTTTCCTCTCACCCGCAAAGCAAAGGGTTC` gave a fluorescence intensity of 537 a.u.
`TGTACGAAGCTATGCCATCAGTATATAGTAGTTAGG` has a fluorescence intensity of 506 a.u.
`GAAACTGATACATATAACGTGTTGGAGTCGTATTAG` has a fluorescence intensity of 566 a.u.
The fluorescence intensity of `GAATACTGAACTTGTTTCATGAGACTCATATCCTAG` is reported as 489 a.u.
`GAAACAATCGATCAGTGCGTGCCTTTAATACTTTAG` gave a fluorescence intensity of 556 a.u.
The fluorescence intensity of `TGTACGAAGCTATAAAACGTGAGTATAGTAGTTAGG` is reported as 612 a.u.
`CTATGGCGATCGAAGCACGTGATCAGTTTTCCATTC` has a fluorescence intensity of 24700 a.u.
`CCTAACTACTATAAGCACGTCGCATAGCTTCGTACA` gave a fluorescence intensity of 542 a.u.
For `GAATATATGTATGGACACGTTTCATTTAGGATTTAG`, the fluorescence intensity was 578 a.u.
The fluorescence intensity of `GAAAAGAGGAGCAGAAACGTGGCAATCTAAAGATAG` is reported as 518 a.u.
`GAATGACGCAGACGTAACATCAGTCATCAGTTATAG` gave a fluorescence intensity of 549 a.u.
`GAAAGAATAAAAAGTTTAATCACGTTCCCGCTTTAG` gave a fluorescence intensity of 2090 a.u.
`TGTACGAAGCTATTACATCAGACTATAGTAGTTAGG` gave a fluorescence intensity of 524 a.u.
`GAACGGTCATTCTACATCATGAATATTAATTTATAG` gave a fluorescence intensity of 547 a.u.
With `GAAATCACAAAAAGTCACCTGATGGACCTTATGTAG` the fluorescence intensity was 3760 a.u.
The fluorescence intensity of `TGTACGAAGCTATGTTCCGTCACTATAGTAGTTAGG` is reported as 524 a.u.
With `CTACCACCCAGCTATGTCGTCATGACTACAAATTTC` the fluorescence intensity was 625 a.u.
`TGTACGAAGCTATAGCACGAGAGTATAGTAGTTAGG` gave a fluorescence intensity of 576 a.u.
`GAACAGATAAACTCCCACGTTTATTATCTTTTGTAG` gave a fluorescence intensity of 564 a.u.
For `TGTACGAAGCTATGCCTGACCACTATAGTAGTTAGG`, the fluorescence intensity was 490 a.u.

Series 3
Target: RING finger protein unkempt homolog, zinc fingers 1-6, GST-SBP tag (UNK, Homo sapiens, UniProt Q9C0B0, residues 30-357)
Sequence of UniProt Q9C0B0 (30-357, looked up): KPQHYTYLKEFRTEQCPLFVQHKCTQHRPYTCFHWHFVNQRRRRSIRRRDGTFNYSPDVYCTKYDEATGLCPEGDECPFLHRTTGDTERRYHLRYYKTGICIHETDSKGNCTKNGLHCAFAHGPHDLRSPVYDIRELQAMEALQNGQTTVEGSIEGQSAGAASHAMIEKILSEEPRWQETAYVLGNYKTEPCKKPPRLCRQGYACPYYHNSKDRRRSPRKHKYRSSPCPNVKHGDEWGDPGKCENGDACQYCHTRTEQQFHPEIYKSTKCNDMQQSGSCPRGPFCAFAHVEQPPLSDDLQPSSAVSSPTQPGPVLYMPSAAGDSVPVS
Method: RNA Bind-n-Seq
Molecule type: RNA
Medium: in vitro
Tested at: not given
Notes: RNA with constant flanks, ends assumed
Reference: input RNA pool
Reading: higher = stronger binding
All sequences stand within: GGGAGUUCUACAGUCCGACGAUC … CAACAGAGGAUUGAGCAUCA
`GACUCUAAGCUGACAAGACUCUUGCAGGAUUCCCUUGGGGGUAACAGCCAAACCAUCAUGACCGCAUGCGUCAGCCCUUCAGACAGGGAUUUCAUGGAGACGUUAAACACUCUGAAGUAC` has a bound/input enrichment of 0.198 ratio.
`UAUUACGUAUUGUAGAAGGCCAUUGUUAACAAGAGUCUCCUGCUAUGAACCUGUUUGCAUUUCCGAAUCAGAGAAACUUUUAAUUUAUAACCUUUUAAGAAUCGAGGUCUUCAGCUCUGA` gave a bound/input enrichment of 0.474 ratio.
The bound/input enrichment of `GAAUUACAACCAUAAAAUGUGUAAUGUUUUGAACAGUAUUCUGUUGGGAUGGAGAUUUUACCGGUUCAGACAAAUCUUCUAGAUCUGCUUCACCCAGCAUAUUUUCUAUUCAGUGAUAUA` is reported as 0.208 ratio.
`CAGUGGGACGGGGAGCAAAGCCCCAGAGGGGAGCGAAACAGGUGGAAGUACGAGGAAUUUUCCGAUCAUCCAGGCCAUAUCCACAGUAGUCCUUGUCAUGAAAGGCCCAACAAUGUCUCU` gave a bound/input enrichment of 0.123 ratio.
With `CCAACGCUCUGCUCCCUGGCAACCCCGAACACUUGGGAUGUCUCGCUGCUGUUUGCCUUCAUCCGUUUGCUCAUCAUGUUUCCCACGUGCUGGAUUGUGUCCUCCUGGCUGGUGUGGGGA` the bound/input enrichment was 0.28 ratio.
With `UCUCUUGCUACUUGCCAGUUAUCUGAGCCAUUGUUGUGGUUUAUCUUGAGAGUGUUGGAUACCCGUGAUGCAUUGAAAGCUUUCCAUGAUAUGGGUGGAGUUCAGCUCAUAUGCAAUAAU` the bound/input enrichment was 0.132 ratio.
For `ACCAUAAUUCCUCUUAAGCAUAUGACUAAUUUAUUUCUUAUUCAUUUCCAUUUCAGCAUUCCGUUCUUUAUUUUUAUUAUGGGGCUAGUUCAGAACUGGAGUGGCUGUAUAGCAGUGUAG`, the bound/input enrichment was 8.88 ratio.
`UACUACUAUGAUGGUGAUAUUGGCAAUUAUUAUUAUGGCCAGGGUCAUCCCAUGAAGCCUCACCGAAUCCGGAUGACUCAUAACUUGCUGCUAAAUUAUGGUUUAUACCGAAAAAUGGAA` has a bound/input enrichment of 0.155 ratio.
`UCUUGUAGAAGAUGGACUCUGAAAAACAUUCCAGGAAACCAUGGCAGCAUGGAGAGCCUCUCCGUGAUUGUGUCUGCAUUGUUAUUGUGGAAGAUUUACCUUUUCUGUUGUACGUAAAGC` gave a bound/input enrichment of 0.12 ratio.
For `UUUAAAACAGGUCUAAAGGCUUUGAUGACAGUAGGGAAAGAACCAUUUCCUACCAUUUACGCCGAUUCACAAAAAGAAAAUGAGAGGUGGAAUGUUAUUUCUAAAUCACAGUUGAAGAAC`, the bound/input enrichment was 0.188 ratio.
`GAUGAGGGUCAGAAGCCUUACCUGGUACAGCGGAGAGGAGCUGAAUUUGCCUUAACAACUACCGUGAAGCAUUUUGGUGCUGAAAUGGCAGUGAAGUUGCCACAUCUUUGGGAUGCUAUG` gave a bound/input enrichment of 0.0763 ratio.

Series 4
Target: Histone acetyltransferase KAT6A, winged helix 1, GST fusion (KAT6A, Homo sapiens, UniProt Q92794, residues 1-85)
Method: protein binding microarray
Molecule type: double-stranded DNA, one strand shown
Medium: in vitro
Tested at: not given
Notes: 8-mer, flanks averaged, mean of 2 arrays, mostly near background
Reference: not given
Reading: higher = stronger binding
Construct (chain): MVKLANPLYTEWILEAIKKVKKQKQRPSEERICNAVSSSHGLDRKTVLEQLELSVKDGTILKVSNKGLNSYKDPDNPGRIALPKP
With `ATCGTCAG` the E-score was -0.233.
The E-score of `TCAGCACA` is reported as -0.177.
The E-score of `CCATACAC` is reported as -0.0624.
For `AGGACTCC`, the E-score was -0.149.
`GCAAGAGA` has an E-score of -0.102.
`ACGGCCAG` gave an E-score of 0.228.
With `GACCACGA` the E-score was -0.184.
`AACTGCTG` has an E-score of -0.0955.
The E-score of `CTCCAGTC` is reported as -0.00381.
For `ACTCATGG`, the E-score was -0.115.
With `CGAAGACC` the E-score was -0.102.
For `AGTGTTCG`, the E-score was -0.064.
The E-score of `CGCTACAC` is reported as 0.22.
The E-score of `CTGAACTC` is reported as -0.235.
For `CACCCATC`, the E-score was -0.0823.
For `CTGCGGGA`, the E-score was 0.185.
The E-score of `CGACAATC` is reported as -0.116.
For `ACTACTAA`, the E-score was -0.0167.
`CCTTGCAC` has an E-score of -0.131.
With `ATATACCC` the E-score was -0.0529.
With `CAGTGAGC` the E-score was 0.0161.
`GACGGTTA` gave an E-score of 0.204.
`AGCATTGG` has an E-score of -0.18.

Excerpt of the above (series 4):
For `AGTGTTCG`, the E-score was -0.064.
`GCAAGAGA` has an E-score of -0.102.
For `CTGCGGGA`, the E-score was 0.185.
The E-score of `CTGAACTC` is reported as -0.235.
The E-score of `CGACAATC` is reported as -0.116.
`AGCATTGG` has an E-score of -0.18.
With `CAGTGAGC` the E-score was 0.0161.
